Assay results collected from several papers.
Numbered parts are unrelated; each lists some results of a single study. Values joined by “and” are separate records of one study, mostly repeats; a detail may differ.

Series 1
Target: HLA class I histocompatibility antigen, A alpha chain, allele A*25:01 (Homo sapiens, UniProt P04439)
Observed: peptide-MHC binding
Molecule type: peptide
Tested at: concentration not given
| Sequence | binding |
| --- | --- |
| DEMVCKWLL | inactive |
| FLLPILSQIYT | inactive |
| SVANIDRIK | inactive |
| QYLFSLTYV | inactive |
| AVDADDSHF | inactive |
| VMGVIGFGF | inactive |
| DTWHGFKNM | inactive |
| SVIDHIHYM | active |

Series 2
Target: D(1B) dopamine receptor (DRD5, Homo sapiens, UniProt P21918)
Observed: binding
Technique: radioligand binding
Tested at: 10 µM
| Compound | inhibition [%] |
| --- | --- |
| CS(=O)(=O)NCC[C@H](NC(=O)c1cncc2c1cnn2-c1ccc(F)cc1)c1ccnc(S(C)(=O)=O)c1 | 36 |
| C[C@@]1(Cc2ccc(C#N)cc2)C(=O)N(c2cc(Cl)cc(Cl)c2)c2ncc(C(=O)NC3(c4nc(C5CCC5)no4)CC3)n21 | 7.21 |
| O=C(Nc1ccc(-n2nc(-c3cccnc3)cc2C(F)(F)F)cn1)c1ccc(-c2ccccc2)c(F)c1 | -28.6 |
| O=C1CCc2cc(Nc3cc(OC4CCOCC4)c([N+](=O)[O-])cc3Cl)ccc2N1 | 13 |
| Cc1c(NC(=O)c2cc(C(N)=O)nc3cc(F)ccc23)c(C(F)(F)F)nn1Cc1ccc(C(C)(C)C)cc1 | 2.96 |
| Cc1nc(N2CC[C@@H](O)C2)ncc1-c1cc(C(F)(F)F)cc2[nH]ncc12 | -11.9 |
| O=C(O)c1cc(-c2ccc(C3CCNCC3)cc2)c2ccc(-c3ccc(C(F)(F)F)cc3)cc2c1 | 73.7 |
| C[C@H](NC(=O)c1cnc2n1[C@](C)(Cc1ccc(C#N)cc1)C(=O)N2c1cc(Cl)c(F)c(Cl)c1)C(=O)NC1(c2ccccn2)CC1 | 14 |
| CNC(=O)c1ccc(Nc2ncc(C(F)(F)F)c(NCc3nccnc3N(C)S(C)(=O)=O)n2)cc1 | -7.46 |
| Cc1nc(Cc2cccc(C(F)(F)F)c2)sc1-c1ccc(C(N)=O)nc1 | 13.8 |

Other studies, line by line
| Structure (SMILES) | cell line | assay | setting | how to read | measurement | result |
| --- | --- | --- | --- | --- | --- | --- |
| C[C@]12CC[C@H](O)C[C@H]1CC[C@@H]1[C@@H]2CC[C@]2(C)[C@@H](C3=CC(=O)OC3)CC[C@]12O | mouse MPNST tumor cells | high-content nuclear imaging, item: cell number | 10 µM, 12 h, mean of 2 replicates | reference: plate mean, higher = more cells | nuclei count | 0.0285 z-score |
| CC(C)(C)c1cnc(CSc2cnc(NC(=O)C3CCN(CCCCCSc4cccc5c4CN(C4CCC(=O)NC4=O)C5=O)CC3)s2)o1 (centres unmarked) | HEK293T | trypan blue exclusion | 250 nM, 24 h | – | viability | 87.2% and 92.8% and 97.4% |
